Results of several laboratories.
Compare with care: the assays were run in different laboratories. ± marks the error that the study gave.

Structure (SMILES) | system | setting | how to read | endpoint | result
Cc1cc2c(cc1C1(c3ncc(C(=O)O)cn3)CC1)C(C)(C)CCC2(C)C | rat Sprague-Dawley male, plasma | oral, 100 mg/kg, sesame oil | – | AUC(0-t) | 50400 ng·h/mL
Cc1cc(O)c2c(c1)C(=O)c1cc(O)cc(O)c1C2=O.Cc1cc(O)c2c(c1)C(=O)c1cc(O)cc(O)c1C2=O.Cc1nc(C)c(C)nc1C | Sprague Dawley rat, plasma | oral, 100 mg/kg | – | AUC(0-t) | 5120 ± 2400 ng·h/mL
CN1CCN(c2ccc(Nc3ncc(Cl)c(Nc4ccccc4P(C)(C)=O)n3)cc2Br)CC1 | male Sprague-Dawley rat, plasma | oral, 25 mg/kg | – | AUC(0-t) | 2930 ng·h/mL
CSCC(NC(=O)c1cc(Cl)ccc1Cl)C(=O)NC(CC(C)C)B(O)O (stereo not drawn) | Sprague-Dawley rat | oral, 0.30 mg/kg of prodrug | reference: whole blood over plasma | AUC(0-t) ratio | > 100 fold
COc1ccnc(C[S+]([O-])c2nc3cc(-n4cccc4)ccc3[nH]2)c1C (stereo not drawn) | male Sprague Dawley rats, plasma | oral, 1 mg/kg ilaprazole racemate | reference: compound over R-ilaprazole | AUC(0-t) ratio | 2.44
CC1(C)CNC(=O)c2ccccc21 | Sprague-Dawley rat, male, plasma | intravenous, 1 mg/kg | – | AUC(0-t) | 937 ± 370 ng·h/mL
Cn1cc(C(N)=O)c(NC2C3CC4CC2CC(O)(C4)C3)c2ccnc1-2 (stereo not drawn) | Japanese adults, moderate hepatic impairment, plasma | oral, 150 mg single dose | – | AUC(0-t) | 1330 ng·h/mL
CC(C)CNC(=O)/C=C/CCc1ccc2c(c1)OCO2 | rat, sham-operated, plasma | oral, 50 mg/kg | – | AUC(0-t) | 112 ± 45.5 ng·h/mL
NC(=O)c1cnc2[nH]ccc2c1NC1C2CC3CC1CC(OS(=O)(=O)O)(C3)C2 (stereo not drawn) | Japanese adults, moderate hepatic impairment, plasma | oral, 150 mg single dose | – | AUC(0-t) | 2480 ng·h/mL
N=C(N)NCCC[C@H](NC(=O)[C@@H]1CCCN1C(=O)[C@H](Cc1ccccc1)NC(=O)[C@@H]1CCCN1C(=O)[C@H](Cc1c[nH]cn1)NC(=O)[C@@H](N)Cc1ccccc1)C(=O)O | Sprague-Dawley rat male, plasma | intravenous, 10 mg/kg, 120 min | – | AUC(0-t) | 22.5 ± 6.4 ng·h/mL
CCCCCCCOc1ccc(CC[C@](N)(CO)COP(=O)(O)O)cc1C(F)(F)F | rat Sprague-Dawley male, plasma | oral, 1 mg/kg | – | AUC(0-t) | 525 ng·h/mL
COC(=O)/C=C/C(=O)c1ccc(OC)cc1 | Sprague-Dawley rat, both sexes, plasma | oral, 200 mg/kg | – | AUC(0-t) | 2100 ± 271 ng·h/mL

For quick reference, copied from above:
Structure (SMILES) | system | setting | how to read | endpoint | result
COC(=O)/C=C/C(=O)c1ccc(OC)cc1 | Sprague-Dawley rat, both sexes, plasma | oral, 200 mg/kg | – | AUC(0-t) | 2100 ± 271 ng·h/mL
